{"data": "Measured values collected from several papers", "target": "Non-receptor tyrosine-protein kinase TNK1 (TNK1, Homo sapiens, UniProt Q13470)", "note": "Each line is one published result; not all experiments were run side by side."}
{"SMILES": "CCN1CCN(Cc2ccc(C(=O)Nc3ccc(C)c(NCc4cnc5[nH]ccc5c4OC)c3)cc2C(F)(F)F)CC1", "assay": "binding, competition with immobilised ligand", "setting": "1 µM", "measurement": "remaining binding", "result": "39%"}
{"SMILES": "CN1CCN(Cc2ccc(-c3ccc(CO[C@H]4CCC[C@@H]4NC(=O)c4cc(-c5cnn(C)c5)cnc4N)cc3)cc2)CC1", "assay": "enzyme activity, inhibitor", "setting": "0.1 µM", "measurement": "inhibition", "result": "7%"}
{"SMILES": "C=CC(=O)Nc1cc(-c2nn(C3CCN(CCNC(=O)[C@H](C)CCC45CC6CC(CC(C6)C4)C5)CC3)c3ncnc(N)c23)ccc1Oc1ccccc1", "assay": "inhibitor, KiNativ profiling", "system": "biochemical", "setting": "2 µM", "measurement": "inhibition", "result": "-2.2%"}
{"SMILES": "COc1cc(Nc2nccc(-c3cnn4nc(OC)ccc34)n2)cc(C(F)(F)F)c1", "assay": "binding, competition with immobilised ligand", "setting": "1 µM", "measurement": "remaining binding", "result": "89%"}
{"SMILES": "Cc1ccc(C(=O)Nc2ccc(CN3CCN(C)CC3)c(C(F)(F)F)c2)cc1C#Cc1cnc2cccnn12", "assay": "target engagement, NanoBRET", "system": "human cells", "measurement": "upper asymptote", "result": 96}
{"SMILES": "COC(=O)[C@@]1(C)C=C(C(=O)Nc2cccc(C(=O)Nc3ccc(Nc4nccc(-c5cccnc5)n4)c(C)c3)c2)C(=O)CC1", "assay": "enzyme activity, inhibitor, radiometric", "setting": "1 µM", "measurement": "remaining activity", "result": "38%"}
{"SMILES": "CC(C)=CC1OC(C)(C)C2C=C3C(=O)C(Cl)=CC(O)C3C3C(O)C4OC4C(=O)C132 (stereo not shown)", "assay": "cell-free assay, competition with immobilised ligand", "setting": "10 µM", "measurement": "remaining binding", "result": "100%"}
{"SMILES": "COc1c(Cl)cccc1Nc1c(-c2ccncc2C#C[C@@]2(C)CCCN2C(=O)/C=C/CN(C)C)[nH]c2c1C(=O)NCC2", "assay": "binding, competition with immobilised ligand", "setting": "3 µM", "measurement": "remaining binding", "result": "94%"}
{"SMILES": "C=CC(=O)N1Cc2nc(-c3cc(-c4cc(Cl)cnc4Cl)c(F)cc3F)n(-c3ccncn3)c2C1", "assay": "cell-free assay, inhibitor", "setting": "1 µM", "measurement": "inhibition", "result": "2.7%"}
{"SMILES": "NC(=O)[C@@H](O)C[C@H]1CCc2sc3ncnc(O[C@H]4CC[C@H](N5CCOCC5)CC4)c3c21", "assay": "enzyme activity, inhibitor", "setting": "10 µM", "measurement": "inhibition", "result": "16%"}
{"SMILES": "CCn1cc(C(=O)O)c(=O)c2c(N)c(F)c(NC3CCCCC3)cc21", "assay": "kinase activity", "setting": "0.1 µM, added: ATP at Km", "measurement": "inhibition", "result": "-6.1%"}
{"SMILES": "C=CC(=O)N1CCc2ccc(-n3c(=O)ccc4cnc5ccc(-c6cnn(C)c6)cc5c43)cc21", "assay": "KINOMEscan", "setting": "1 µM", "how to read": "relative to: DMSO control", "measurement": "remaining binding", "result": "16%"}
{"SMILES": "Nc1ncc(-c2cc(-c3cnn(CC(F)(F)F)c3)ncc2F)nc1C(=O)NC1CNCC(F)C1 (stereo not shown)", "assay": "enzyme activity", "setting": "1 µM", "how to read": "relative to: DMSO control", "measurement": "remaining activity", "result": "99.5%"}
{"note": "A few entries again:"}
{"SMILES": "CC(C)=CC1OC(C)(C)C2C=C3C(=O)C(Cl)=CC(O)C3C3C(O)C4OC4C(=O)C132 (stereo not shown)", "assay": "cell-free assay, competition with immobilised ligand", "setting": "10 µM", "measurement": "remaining binding", "result": "100%"}
{"SMILES": "CCN1CCN(Cc2ccc(C(=O)Nc3ccc(C)c(NCc4cnc5[nH]ccc5c4OC)c3)cc2C(F)(F)F)CC1", "assay": "binding, competition with immobilised ligand", "setting": "1 µM", "measurement": "remaining binding", "result": "39%"}
